Assay results collected from several papers.
Protocols differ between the studies behind these lines. ± gives the spread as reported.
Cell line: MCF7

CN1CCC2(CC1)C/C(=N\NC(=O)Nc1ccccc1)c1ccccc1O2 — apoptotic cells (annexin V-FITC/PI; concentration not given, 24 h, Late apoptosis): 14.5%
NS(=O)(=O)c1ccc(/N=N/c2ccc(O)c(/C=N/c3cccc(O)c3)c2)cc1 — selectivity index (MTT; 72 h; reference: MCF10A IC50 over MCF7 IC50): 1.43
CN(C)c1ccc(/C=C/c2cc(/C=C3\Sc4ccccc4N3CCCN3CCCC3)c3ccccc3[n+]2C)cc1 — caspase-3 and Bax levels (Western blot; concentration not given, 36 h): increased
COc1ccc(NC(=O)CCc2nc3cc(Cl)ccc3[nH]c2=O)cc1 — VEGFR-2 level (ELISA; culture medium; IC50, 24 h): 170 pg/mL
CCCCCCCCCCCC1N=C(N)N=C(N)N1c1ccc(Cl)cc1.Cl (racemic) — growth inhibition (concentration not given): ≤ 100%
CCC[C@@H]1O[C@@H](Oc2c(-c3ccc(O)cc3)oc3cc(O)cc(O)c3c2=O)[C@H](OC(C)=O)[C@H](OC(C)=O)[C@H]1NC(C)=O — eEF2 phosphorylation (inhibitor, immunoblot, item: phospho-eEF2; 25 and 50 µM, added: PMA; reference: PMA alone): no effect
CC(C)(C)C12CC(CN3CCN(C(c4ccccc4)c4ccc(Cl)cc4)CC3)(C1)C2 (stereo not shown) — EC50 (lipid droplet formation, Nile Red staining; 72 h): 16 µM
COc1cccc2c1C(=O)c1c(O)c3c(c(O)c1C2=O)C[C@@](O)(C(=O)CO)C[C@@H]3O[C@H]1C[C@H](N)[C@H](O)[C@H](C)O1 — ROS production (concentration not given, 4 h): increased
COc1cc(/C=C/c2cc(C)n[nH]2)ccc1O — GSH/GSSG ratio increase (25 µM, 48 h; reference: untreated): ~7 fold
CCCc1cc(O)nc(SCCOC(=O)[C@]2(C)CCC[C@]3(C)c4ccc(C(C)C)cc4CCC23)n1 (stereo partly shown) — S-phase cells (PI flow cytometry; 15 µM, 48 h): 40.7%
CC(=O)OC[C@H]1O[C@@H](Sc2sc(C(=O)c3ccc(Br)cc3)c(N)c2-c2nc3ccccc3s2)[C@H](OC(C)=O)[C@@H](OC(C)=O)[C@H]1OC(C)=O — growth (SRB; 10 µM, 48 h; reference: untreated): 94.6%
COc1ccc(CC(C)=C(c2ccc(Cl)cc2)c2ccc(OCCN3CCCCC3)cc2)cc1 — inhibition (cell growth or viability; 10 µM): 18.3%
N=C(N)NCCC[C@H](NC(=O)[C@H](Cc1c[nH]c2ccccc12)NC(=O)[C@H](CCC(N)=O)NC(=O)[C@H](Cc1c[nH]c2ccccc12)NC(=O)[C@H](CCCNC(=N)N)NC(=O)[C@H](Cc1c[nH]c2ccccc12)NC(=O)[C@H](CCC(N)=O)NC(=O)[C@H](Cc1c[nH]c2ccccc12)NC(=O)[C@@H](N)CCCNC(=N)N)C(N)=O — caspase activation (flow cytometry; concentration not given, 2 h, intrinsic pathway): ~80%
O=C1c2ccccc2C(=O)c2c1ccc1c2C(C(=O)Nc2ccccc2)C(=O)C1c1ccccc1 (stereo not shown) — TGI (cell growth or viability): 22 µM
O=C(c1ccc2ccccc2c1)c1cn(-c2ccccc2)nc1C1=Nn2c(Cc3nnc4n3N=C(c3nn(-c5ccccc5)cc3C(=O)c3ccc5ccccc5c3)CS4)nnc2SC1 — mRNA level (RT-PCR, item: caspase-8; IC50, 48 h; reference: untreated): 6.5 fold
Nc1ccccc1NC(=O)c1cnccn1 — apoptotic cells (annexin V/PI flow cytometry; IC50, 48 h): 15.6 ± 1.7%
O=C(O)C=Cc1ccc(C(=C2C3CCCC2CCC3)c2ccc(O)cc2)cc1 — PR mRNA level (antagonist, real-time PCR; 1 µM, added: 1 nM estradiol): inhibited
CCC(=C(c1ccc(Cl)cc1)c1ccc(OCCCN(C)C)cc1)c1ccccc1 — inhibition (cell growth or viability; 10 µM): 38.8%
COc1ccc(/C=C/C(=O)c2ccc(NC(=O)c3ccccc3CN3C(=O)c4ccccc4C3=O)cc2)c(OC)c1 — late apoptotic cells (annexin V/PI staining; IC50, 24 h; reference: untreated): 45.2 fold
